Results from different studies.
A part holds a random share of what one study measured. “And” joins repeats or separate records; there may be more than shown.
Sequence of UniProt Q5XXA6 (whole entry, unmodified, looked up): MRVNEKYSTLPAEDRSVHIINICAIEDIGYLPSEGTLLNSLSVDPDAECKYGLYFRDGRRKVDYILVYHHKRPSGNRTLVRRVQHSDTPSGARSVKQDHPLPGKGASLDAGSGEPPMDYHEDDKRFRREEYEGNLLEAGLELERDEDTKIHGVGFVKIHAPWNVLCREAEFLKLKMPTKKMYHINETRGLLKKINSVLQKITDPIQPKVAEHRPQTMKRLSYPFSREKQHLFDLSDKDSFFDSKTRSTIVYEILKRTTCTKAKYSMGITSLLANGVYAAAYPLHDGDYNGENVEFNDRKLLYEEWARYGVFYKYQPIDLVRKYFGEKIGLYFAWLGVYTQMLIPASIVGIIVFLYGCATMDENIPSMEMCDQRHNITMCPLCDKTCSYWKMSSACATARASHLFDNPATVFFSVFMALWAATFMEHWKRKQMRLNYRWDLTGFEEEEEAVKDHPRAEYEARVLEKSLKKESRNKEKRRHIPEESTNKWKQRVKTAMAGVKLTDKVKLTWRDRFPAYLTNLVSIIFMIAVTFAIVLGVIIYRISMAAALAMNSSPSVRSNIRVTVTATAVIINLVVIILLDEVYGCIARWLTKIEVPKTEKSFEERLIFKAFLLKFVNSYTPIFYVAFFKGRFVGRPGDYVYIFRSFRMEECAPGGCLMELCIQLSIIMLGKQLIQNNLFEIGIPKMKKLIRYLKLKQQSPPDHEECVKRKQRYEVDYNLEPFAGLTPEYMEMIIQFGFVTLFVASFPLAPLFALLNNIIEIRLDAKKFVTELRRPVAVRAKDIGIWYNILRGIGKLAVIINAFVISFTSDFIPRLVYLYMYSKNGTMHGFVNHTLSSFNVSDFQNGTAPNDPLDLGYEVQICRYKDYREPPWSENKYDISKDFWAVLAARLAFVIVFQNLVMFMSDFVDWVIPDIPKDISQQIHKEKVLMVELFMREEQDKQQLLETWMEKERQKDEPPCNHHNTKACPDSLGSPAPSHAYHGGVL
Sequence of UniProt Q8IYT8 (whole entry, looked up): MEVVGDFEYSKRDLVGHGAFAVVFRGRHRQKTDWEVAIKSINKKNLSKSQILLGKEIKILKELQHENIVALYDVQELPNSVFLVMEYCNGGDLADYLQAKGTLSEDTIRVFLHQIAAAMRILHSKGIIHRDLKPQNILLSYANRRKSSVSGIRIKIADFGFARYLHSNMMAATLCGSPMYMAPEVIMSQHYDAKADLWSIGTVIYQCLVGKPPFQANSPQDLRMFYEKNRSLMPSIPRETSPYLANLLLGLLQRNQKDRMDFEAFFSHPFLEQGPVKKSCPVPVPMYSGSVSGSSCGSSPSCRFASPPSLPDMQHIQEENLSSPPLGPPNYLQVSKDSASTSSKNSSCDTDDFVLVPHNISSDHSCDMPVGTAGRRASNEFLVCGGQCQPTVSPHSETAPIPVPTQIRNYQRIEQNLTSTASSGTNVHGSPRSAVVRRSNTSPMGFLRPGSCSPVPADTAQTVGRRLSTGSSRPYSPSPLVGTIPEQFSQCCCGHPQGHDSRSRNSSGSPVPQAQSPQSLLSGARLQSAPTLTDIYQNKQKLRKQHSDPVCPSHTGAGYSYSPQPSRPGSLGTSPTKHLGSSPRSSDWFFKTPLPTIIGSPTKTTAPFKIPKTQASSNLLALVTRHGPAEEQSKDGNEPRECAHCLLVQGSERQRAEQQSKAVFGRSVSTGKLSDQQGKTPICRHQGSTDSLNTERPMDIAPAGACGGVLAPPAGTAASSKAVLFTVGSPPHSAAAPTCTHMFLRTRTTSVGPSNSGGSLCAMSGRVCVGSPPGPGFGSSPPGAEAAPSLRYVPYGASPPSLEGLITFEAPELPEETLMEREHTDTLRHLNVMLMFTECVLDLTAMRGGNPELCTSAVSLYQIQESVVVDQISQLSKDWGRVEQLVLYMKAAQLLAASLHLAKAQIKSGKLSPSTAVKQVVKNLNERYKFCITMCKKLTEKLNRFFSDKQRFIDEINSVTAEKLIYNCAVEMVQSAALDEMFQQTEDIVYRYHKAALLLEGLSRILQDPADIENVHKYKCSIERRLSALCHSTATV
Sequence of UniProt P10721 (whole entry, unmodified, looked up): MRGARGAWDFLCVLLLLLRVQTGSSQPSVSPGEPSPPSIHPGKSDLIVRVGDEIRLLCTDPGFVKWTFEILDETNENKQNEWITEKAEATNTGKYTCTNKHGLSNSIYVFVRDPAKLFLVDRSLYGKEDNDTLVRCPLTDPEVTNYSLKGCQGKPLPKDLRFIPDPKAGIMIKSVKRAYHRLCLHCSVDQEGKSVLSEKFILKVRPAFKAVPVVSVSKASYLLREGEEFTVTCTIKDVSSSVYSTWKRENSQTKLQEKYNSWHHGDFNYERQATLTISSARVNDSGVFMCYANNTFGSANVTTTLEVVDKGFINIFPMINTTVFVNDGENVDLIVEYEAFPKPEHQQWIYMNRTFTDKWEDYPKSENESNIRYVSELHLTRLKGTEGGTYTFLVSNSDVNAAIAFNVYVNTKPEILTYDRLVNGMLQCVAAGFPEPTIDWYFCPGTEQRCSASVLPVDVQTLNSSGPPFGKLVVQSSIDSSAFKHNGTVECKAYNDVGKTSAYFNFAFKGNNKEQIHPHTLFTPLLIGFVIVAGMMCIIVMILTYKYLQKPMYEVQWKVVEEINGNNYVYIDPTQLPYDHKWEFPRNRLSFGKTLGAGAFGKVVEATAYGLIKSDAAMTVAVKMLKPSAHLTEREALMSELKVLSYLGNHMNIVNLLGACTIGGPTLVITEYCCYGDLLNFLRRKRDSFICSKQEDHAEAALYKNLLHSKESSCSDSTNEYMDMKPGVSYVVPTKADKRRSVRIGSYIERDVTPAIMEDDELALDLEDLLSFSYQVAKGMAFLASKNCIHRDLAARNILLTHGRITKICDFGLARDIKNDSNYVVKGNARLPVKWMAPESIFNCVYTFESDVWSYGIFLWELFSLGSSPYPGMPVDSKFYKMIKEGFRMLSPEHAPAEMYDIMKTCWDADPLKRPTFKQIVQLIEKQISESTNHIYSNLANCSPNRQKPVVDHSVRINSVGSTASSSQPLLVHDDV
Sequence of UniProt Q9BQI3 (whole entry, looked up): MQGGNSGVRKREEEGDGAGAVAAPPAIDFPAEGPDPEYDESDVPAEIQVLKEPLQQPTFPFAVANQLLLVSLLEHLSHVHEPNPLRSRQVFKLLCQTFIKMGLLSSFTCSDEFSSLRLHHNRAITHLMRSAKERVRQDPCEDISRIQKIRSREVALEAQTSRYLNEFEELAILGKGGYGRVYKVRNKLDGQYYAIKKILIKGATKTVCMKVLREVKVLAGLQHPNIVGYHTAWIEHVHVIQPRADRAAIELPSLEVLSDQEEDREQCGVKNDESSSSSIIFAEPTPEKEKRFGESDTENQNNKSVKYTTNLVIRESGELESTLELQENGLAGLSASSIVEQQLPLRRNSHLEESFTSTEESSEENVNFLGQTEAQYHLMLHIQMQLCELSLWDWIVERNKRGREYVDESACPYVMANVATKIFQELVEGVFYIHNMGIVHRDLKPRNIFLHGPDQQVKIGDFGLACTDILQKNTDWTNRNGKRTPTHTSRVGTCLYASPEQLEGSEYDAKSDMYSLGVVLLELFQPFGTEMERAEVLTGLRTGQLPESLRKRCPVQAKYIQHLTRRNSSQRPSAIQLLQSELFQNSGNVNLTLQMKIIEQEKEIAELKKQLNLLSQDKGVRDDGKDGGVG
Sequence of UniProt Q92918 (whole entry, looked up): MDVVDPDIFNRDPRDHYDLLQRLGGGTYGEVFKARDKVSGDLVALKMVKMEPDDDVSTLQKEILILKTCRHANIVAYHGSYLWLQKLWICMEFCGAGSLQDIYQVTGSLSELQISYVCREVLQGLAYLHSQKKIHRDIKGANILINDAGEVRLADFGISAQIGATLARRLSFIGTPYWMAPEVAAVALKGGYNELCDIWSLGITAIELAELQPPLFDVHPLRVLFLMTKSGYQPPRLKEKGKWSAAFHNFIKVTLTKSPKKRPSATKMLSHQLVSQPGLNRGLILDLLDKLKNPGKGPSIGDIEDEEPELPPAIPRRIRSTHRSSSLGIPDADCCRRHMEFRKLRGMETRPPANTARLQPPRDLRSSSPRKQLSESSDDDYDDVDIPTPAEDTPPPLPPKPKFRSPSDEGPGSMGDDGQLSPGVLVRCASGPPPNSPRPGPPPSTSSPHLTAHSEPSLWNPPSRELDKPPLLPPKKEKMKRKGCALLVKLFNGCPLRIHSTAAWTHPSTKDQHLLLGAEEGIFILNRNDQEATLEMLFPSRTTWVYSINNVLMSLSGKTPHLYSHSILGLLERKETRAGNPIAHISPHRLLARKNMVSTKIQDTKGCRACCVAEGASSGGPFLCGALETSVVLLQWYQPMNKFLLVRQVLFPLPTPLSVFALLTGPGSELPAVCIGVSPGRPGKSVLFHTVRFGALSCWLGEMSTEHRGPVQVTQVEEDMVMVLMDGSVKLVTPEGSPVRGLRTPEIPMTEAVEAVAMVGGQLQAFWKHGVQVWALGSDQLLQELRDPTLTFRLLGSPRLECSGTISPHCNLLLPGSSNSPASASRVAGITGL
Sequence of UniProt Q14012 (whole entry, looked up): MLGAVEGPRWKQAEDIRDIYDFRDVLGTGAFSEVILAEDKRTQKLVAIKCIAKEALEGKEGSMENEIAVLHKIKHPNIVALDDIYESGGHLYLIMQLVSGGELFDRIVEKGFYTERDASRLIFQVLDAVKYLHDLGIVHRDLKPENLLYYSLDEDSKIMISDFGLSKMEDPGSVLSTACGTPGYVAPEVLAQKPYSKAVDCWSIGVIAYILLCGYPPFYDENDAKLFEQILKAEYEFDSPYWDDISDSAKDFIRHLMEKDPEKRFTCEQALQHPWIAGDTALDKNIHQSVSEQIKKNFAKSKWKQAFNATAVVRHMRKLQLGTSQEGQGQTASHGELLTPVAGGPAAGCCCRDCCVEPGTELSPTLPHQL

Sample 1
Cell line: HaCaT
Tested at: 100 µM
Time: 60 h
Measurement: viability
CCN(CC)CCNC(=O)c1cc(Cl)c(N)cc1OC: 114%
Nc1cc(-c2ccncc2)c[nH]c1=O: 140%
CC1(C)S[C@@H]2[C@H](NC(=O)[C@H](C(=O)O)c3ccsc3)C(=O)N2[C@H]1C(=O)O: 126%
CCOc1cc(N)c(Cl)cc1C(=O)NCC1CN(Cc2ccc(F)cc2)CCO1 (centres unmarked): 117%

Sample 2
SMILES: O=C(Nc1cnn(-c2csc(C(=O)NC3COC3)c2)c1)Nc1c(F)cccc1Cl
Tested at: 5 µM
Measurement: remaining activity
SRSF protein kinase 3 (SRPK3, Homo sapiens, UniProt Q9UPE1); kinase activity, kinase panel profiling: 89.8%
Calcium/calmodulin-dependent protein kinase type 1 (CAMK1, Homo sapiens, UniProt Q14012); enzyme activity; baseline: untreated control: 97.5%
Mitogen-activated protein kinase kinase kinase kinase 1 (MAP4K1, Homo sapiens, UniProt Q92918); enzyme activity; baseline: untreated control: 89.1%

Sample 3
Structure (SMILES): O=C1NC(c2ccccn2)Sc2ccccc21 (centres unmarked)
Tested at: 1 µM
Measurement: remaining binding
Receptor-type tyrosine-protein kinase FLT3 (FLT3, Homo sapiens, UniProt P36888, F691L/ITD); cell-free assay, competition with immobilised ligand: 100%
Homeodomain-interacting protein kinase 4 (HIPK4, Homo sapiens, UniProt Q8NE63); cell-free assay, competition with immobilised ligand: 70%
Cyclin-dependent kinase-like 2 (CDKL2, Homo sapiens, UniProt Q92772); cell-free assay, competition with immobilised ligand: 76%
Mast/stem cell growth factor receptor Kit (KIT, Homo sapiens, UniProt P10721, V559D); cell-free assay, competition with immobilised ligand: 100%
Phosphatidylinositol 5-phosphate 4-kinase type-2 gamma (PIP4K2C, Homo sapiens, UniProt Q8TBX8); cell-free assay, competition with immobilised ligand: 100%
Tyrosine-protein kinase Fgr (FGR, Homo sapiens, UniProt P09769); cell-free assay, competition with immobilised ligand: 100%
Serine/threonine-protein kinase ULK2 (ULK2, Homo sapiens, UniProt Q8IYT8); cell-free assay, competition with immobilised ligand: 76%
Inhibitor of nuclear factor kappa-B kinase subunit beta (IKBKB, Homo sapiens, UniProt O14920); cell-free assay, competition with immobilised ligand: 100%
Phosphatidylinositol 3-kinase C2 domain-containing subunit gamma (PIK3C2G, Homo sapiens, UniProt O75747); cell-free assay, competition with immobilised ligand: 100%
Mitogen-activated protein kinase 8 (MAPK8, Homo sapiens, UniProt P45983); cell-free assay, competition with immobilised ligand: 100%
Eukaryotic translation initiation factor 2-alpha kinase 1 (EIF2AK1, Homo sapiens, UniProt Q9BQI3); cell-free assay, competition with immobilised ligand: 79%
Protein kinase C theta type (PRKCQ, Homo sapiens, UniProt Q04759); cell-free assay, competition with immobilised ligand: 76%
Serine/threonine-protein kinase MRCK gamma (CDC42BPG, Homo sapiens, UniProt Q6DT37); competition binding: 80%
Serine/threonine-protein kinase PLK4 (PLK4, Homo sapiens, UniProt O00444); cell-free assay, competition with immobilised ligand: 76%
Serine/threonine-protein kinase Nek2 (NEK2, Homo sapiens, UniProt P51955); cell-free assay, competition with immobilised ligand: 100%

Sample 4
Compound: C=CCc1ccc(O)c(-c2ccc(O)c(CC=C)c2)c1
Effect on: chloride current
Technique: whole-cell voltage clamp
Measurement: IC50
Anoctamin-1 (ANO1, Homo sapiens, UniProt Q5XXA6, del476-501/F803A); membrane voltage -20 mV: 12 µM
Anoctamin-1 (ANO1, Homo sapiens, UniProt Q5XXA6, del476-501/L548A); inhibitor; pore pocket mutant L522A at 100 mV, added: 300 nM Ca2+: 6.21 µM
Anoctamin-1 (ANO1, Homo sapiens, UniProt Q5XXA6, del476-501/R561A); membrane voltage 20 mV: 4.99 µM
Anoctamin-1 (ANO1, Homo sapiens, UniProt Q5XXA6, del476-501/R631K); inhibitor; R605K mutant at -80 mV: 15.6 µM

Sample 5
Species: mouse
Matrix: microsomes or S9
Tested at: 2 µM
Time: 0.5 h
Measurement: remaining compound
COc1cc(O)ccc1-c1nnc(C)n1-c1ccc(O)cc1: 62.8%
CCOc1cc(=O)n2c(c1C(=O)NCc1ccc(F)cc1Cl)CCCC2: 24.3%
Cn1c(-c2c(N)n(C3CCCC3)c3nc4ccccc4nc23)nc2ccccc21: > 99%
CC(Oc1ccc(Cl)cc1Cl)C(=O)NCCc1ccccc1 (centres unmarked): 15.4%
COCCOc1cc(=O)n2c(c1C(=O)NC1CCCCCC1)CCOCC2: 68.9%

Further values, each from its own experiment
COc1ccc(-c2c(Nc3ccccn3)[nH]c3c(C4=CCCCC4)c(-c4ccccc4)nn3c2=O)cc1
AUC(0-t), dose-normalised (LC-MS/MS; human, plasma; 50 mg once daily): 646 ng·h/mL/mg and 697 ng·h/mL/mg and 661 ng·h/mL/mg

Repeated from above (sample 3):
Inhibitor of nuclear factor kappa-B kinase subunit beta (IKBKB, Homo sapiens, UniProt O14920); cell-free assay, competition with immobilised ligand: 100%
Serine/threonine-protein kinase Nek2 (NEK2, Homo sapiens, UniProt P51955); cell-free assay, competition with immobilised ligand: 100%
Cyclin-dependent kinase-like 2 (CDKL2, Homo sapiens, UniProt Q92772); cell-free assay, competition with immobilised ligand: 76%
Homeodomain-interacting protein kinase 4 (HIPK4, Homo sapiens, UniProt Q8NE63); cell-free assay, competition with immobilised ligand: 70%
